Results of several laboratories.
Each line is one published result; not all experiments were run side by side. Numbers after ± are the reported error.

With NC[C@@H]1O[C@H](O[C@H]2[C@@H](O)[C@H](O[C@@H]3[C@@H](O)[C@H](N)C[C@H](N)[C@H]3O[C@H]3O[C@H](CO)[C@@H](OCCO)[C@H](O)[C@H]3N)O[C@@H]2CO)[C@H](N)[C@@H](O)[C@@H]1O the IC50 was 152 ± 51.3 µg/mL (Mycobacterium smegmatis ribosome G1491C; translation, cell-free luciferase synthesis).
For CC[C@@H]1CN2CCc3c([nH]c4cccc(OC)c34)[C@@H]2C[C@@H]1/C(=C\OC)C(=O)OC, the IC50 was 4.98 µg/mL (anti-compound rabbit polyclonal IgG; antibody binding, competitive indirect ELISA; 1× PBST antibody diluent, Tween 0.05%).
NC[C@@H]1O[C@H](O[C@H]2[C@@H](O)[C@H](O[C@@H]3[C@@H](O)[C@H](N)C[C@H](N)[C@H]3O[C@H]3O[C@H](CO)[C@@H](CCO)[C@H](O)[C@H]3N)O[C@@H]2CO)[C@H](N)[C@@H](O)[C@@H]1O gave an IC50 of 25 µg/mL (bacterial hybrid ribosome, human mitochondrial A1555G A site; cell-free translation, inhibitor).
For CC(=O)N[C@H]1CSC(=O)[C@H](Cc2ccccc2)NC(=O)[C@H](Cc2ccccc2)NC(=O)COCCOCCNC1=O, the IC50 was 5.94 µM (AgrC (Staphylococcus aureus); reporter gene, inhibitor; Staphylococcus aureus, AH1872 (MN EV); 24 h).
The IC50 of COCOC[C@H]1O[C@H](O[C@H]2[C@H](O[C@@H]3O[C@H](CO)[C@@H](O[C@H]4O[C@@H](CN)[C@@H](O)[C@H](O)[C@H]4N)[C@H]3O)[C@@H](O)[C@H](N)C[C@@H]2N)[C@H](N)[C@@H](O)[C@@H]1OCOC is reported as > 700 µg/mL (Mycobacterium smegmatis ribosome G1491C; translation, cell-free luciferase synthesis).
For CCCS[C@H]1[C@H](O)[C@@H](N)[C@@H](O[C@H]2[C@H](O[C@@H]3O[C@H](CO)[C@@H](O[C@H]4O[C@@H](CN)[C@@H](O)[C@H](O)[C@H]4N)[C@H]3O)[C@@H](O)[C@H](N)C[C@@H]2N)O[C@@H]1CO, the IC50 was 125 µg/mL (bacterial hybrid ribosome, human mitochondrial A site; cell-free translation, inhibitor).
For NC[C@@H]1O[C@H](O[C@H]2[C@@H](O)[C@H](O[C@@H]3[C@@H](O)[C@H](N)C[C@H](N)[C@H]3O[C@H]3O[C@H](CO)[C@@H](OCCCO)[C@H](O)[C@H]3N)O[C@@H]2CO)[C@H](N)[C@@H](O)[C@@H]1O, the IC50 was > 700 µg/mL (Mycobacterium smegmatis ribosome G1491C; translation, cell-free luciferase synthesis).
The IC50 of CCN(C)C(=O)Oc1ccccc1/C=C1\Cc2cc(OC)c(OC)cc2C1=O is reported as 0.0903 µM (CES2A, mouse; irinotecan hydrolysis, inhibitor; mouse intestinal S9; 30 min preincubation, added: irinotecan).
The IC50 of CCS(=O)(=O)[C@H]1[C@H](O)[C@@H](N)[C@@H](O[C@H]2[C@H](O[C@@H]3O[C@H](CO)[C@@H](O[C@H]4O[C@@H](CN)[C@@H](O)[C@H](O)[C@H]4N)[C@H]3O)[C@@H](O)[C@H](N)C[C@@H]2N)O[C@@H]1CO is reported as 8.5 µg/mL (wild-type bacterial ribosome; cell-free translation, inhibitor).
C[C@@H](NC(=O)[C@@H](N)Cc1ccc(O)cc1)C(=O)NCC(=O)N[C@@H](Cc1ccc(F)cc1)C(=O)Nc1ccccc1NC(=O)[C@H](Cc1ccc(F)cc1)NC(=O)CNC(=O)[C@@H](C)NC(=O)[C@@H](N)Cc1ccc(O)cc1 has an IC50 of 0.0037 ± 0.001 µM (mu opioid receptor, guinea pig; ileum contraction, agonist; guinea pig ileum LMMP).
O=C(Oc1nsnc1N1CCOCC1)c1ccccc1 gave an IC50 of 16.9 ± 1 µM (trypsin; inhibitor, gel-based; added: denatured BSA).
For CC(=O)N[C@H]1CNC(=O)[C@H](Cc2ccccc2)NC(=O)[C@H](Cc2ccccc2)NC(=O)CCCCCCCNC1=O, the IC50 was 3.94 µM (AgrC (Staphylococcus aureus); reporter gene, inhibitor; Staphylococcus aureus, AH1677 (USA300 LAC); 24 h).
The IC50 of NC[C@@H]1O[C@H](O[C@H]2[C@@H](O)[C@H](O[C@@H]3[C@@H](O)[C@H](N)C[C@H](N)[C@H]3O[C@H]3O[C@H](CO)[C@@H](OCC(O)CO)[C@H](O)[C@H]3N)O[C@@H]2CO)[C@H](N)[C@@H](O)[C@@H]1O (stereo partly drawn) is reported as 2.57 ± 0.48 µg/mL (Mycobacterium smegmatis ribosome G1491A; translation, cell-free luciferase synthesis).
The IC50 of CC(=O)N[C@H]1CSC(=O)[C@H](Cc2ccccc2)NC(=O)[C@H](Cc2ccccc2)NC(=O)CCCCCCCCNC1=O is reported as 3.49 µM (AgrC (Staphylococcus aureus); reporter gene, inhibitor; Staphylococcus aureus, AH1872 (MN EV); 24 h).
The IC50 of CC(C)CS[C@H]1[C@H](O)[C@@H](N)[C@@H](O[C@H]2[C@H](O[C@@H]3O[C@H](CO)[C@@H](O[C@H]4O[C@@H](CN)[C@@H](O)[C@H](O)[C@H]4N)[C@H]3O)[C@@H](O)[C@H](N)C[C@@H]2N)O[C@@H]1CO is reported as 0.1 µg/mL (wild-type bacterial ribosome; cell-free translation, inhibitor).
With CC[C@H](C)[C@H](NC(=O)[C@H](C)NC(=O)[C@@H](N)Cc1c[nH]cn1)C(=O)N[C@@H](Cc1ccc(O)cc1)C(=O)N1CCC[C@H]1C(=O)N[C@@H](CCCNC(=N)N)C(=O)N[C@@H](Cc1c[nH]cn1)C(=O)N[C@H](CO)C(=O)N[C@H](Cc1c[nH]c2ccccc12)C(=O)N[C@@H](C(=O)N[C@H](Cc1c[nH]c2ccccc12)C(=O)N[C@H](CCC(=O)O)C(=O)N[C@H](CCCCN)C(=O)N[C@H](CCCCN)C(=O)N[C@H](CC(C)C)C(=O)N[C@H](CCC(=O)O)C(=O)N[C@@H](C(=O)N[C@H](C)C(=O)N[C@@H](C(=O)N[C@H](CC(N)=O)C(=O)N[C@H](CC(C)C)C(=O)N[C@H](C)C(=O)N[C@H](Cc1c[nH]c2ccccc12)C(=O)N[C@@H](C(=O)N[C@H](C)C(=O)NCC(=O)N[C@H](CC(N)=O)C(=O)N[C@H](CO)C(=O)N[C@H](CC(N)=O)C(=O)N[C@H](CCCCN)C(=O)N[C@H](Cc1c[nH]c2ccccc12)C(=O)N[C@@H](C(=O)N[C@H](Cc1c[nH]c2ccccc12)C(=O)N[C@H](CCCCN)C(=O)O)[C@H](C)O)[C@H](C)O)C(C)C)[C@H](C)O)[C@H](C)O the IC50 was 1.8 µM (cell death; PI staining flow cytometry; MEC1; 90 min).
With C=CCO[C@H]1[C@H](O)[C@@H](N)[C@@H](O[C@H]2[C@H](O[C@@H]3O[C@H](CO)[C@@H](O[C@H]4O[C@@H](CN)[C@@H](O)[C@H](O)[C@H]4N)[C@H]3O)[C@@H](O)[C@H](N)C[C@@H]2N)O[C@@H]1CO the IC50 was 269 ± 18.9 µg/mL (Mycobacterium smegmatis ribosome G1491C; translation, cell-free luciferase synthesis).
COC[C@@H](NC(C)=O)C(=O)NCc1ccc(-c2ccc(F)cc2)cc1 has an IC50 of 0.82 µM (voltage-gated sodium channels (mouse); slow inactivation, whole-cell patch clamp; CAD cells; -50 mV conditioning pulse).
CC1(C)C(/C=C(\Cl)C(F)(F)F)C1C(=O)OC(C#N)c1cccc(Oc2ccccc2)c1 (stereo not drawn) has an IC50 of 530 µM (glutathione S-transferase, Vaccinium arctostaphylos; enzyme activity, inhibitor; added: CDNB and GSH).
The IC50 of CC(C)S[C@H]1[C@H](O)[C@@H](N)[C@@H](O[C@H]2[C@H](O[C@@H]3O[C@H](CO)[C@@H](O[C@H]4O[C@@H](CN)[C@@H](O)[C@H](O)[C@H]4N)[C@H]3O)[C@@H](O)[C@H](N)C[C@@H]2N)O[C@@H]1CO is reported as 125 µg/mL (bacterial hybrid ribosome, human mitochondrial A1555G A site; cell-free translation, inhibitor).
CCCO[C@H]1[C@H](O)[C@@H](N)[C@@H](O[C@H]2[C@H](O[C@@H]3O[C@H](CO)[C@@H](O[C@H]4O[C@@H](CN)[C@@H](O)[C@H](O)[C@H]4N)[C@H]3O)[C@@H](O)[C@H](N)C[C@@H]2N)O[C@@H]1CO gave an IC50 of 289 ± 149 µg/mL (Mycobacterium smegmatis ribosome G1491C; translation, cell-free luciferase synthesis).
For CCCCCCCCC(=O)NCc1ccc(O)c(OC)c1, the IC50 was 0.383 µg/mL (mouse mAb 1-G12; antibody binding, indirect competitive ELISA).
The IC50 of CC[C@@H](C)[C@@H](NC(=O)[C@@H](CCCCN)NC(=O)[C@H](NC(=O)[C@@H](CCC(N)=O)NC(=O)[C@@H](CCCNC(=N)N)NC(=O)[C@@H](CC(C)C)NC(=O)CNC(=O)[C@@H](Cc1ccccc1)NC(=O)CNC(=O)[C@@H](Cc1ccc(O)cc1)NC(=O)CNC(=O)[C@@H](CCCCN)NC(=O)[C@H](NC(=O)[C@@H](Cc1ccccc1)NC(=O)[C@H](NC(=O)[C@@H](CC(=O)O)NC(=O)[C@H](N)CCCNC(=N)N)C(C)C)[C@H](C)O)[C@H](C)CC)C(=O)N[C@H](Cc1c[nH]c2ccccc12)C(=O)N[C@H](Cc1ccccc1)C(=O)N[C@H](CCC(N)=O)C(=O)N[C@H](CC(N)=O)C(=O)N[C@H](CCCNC(=N)N)C(=O)N[C@H](CCCNC(=N)N)C(=O)N[C@H](CCSC)C(=O)N[C@H](CCCCN)C(=O)N[C@H](Cc1c[nH]c2ccccc12)C(=O)N[C@H](CCCCN)C(=O)N[C@H](CCCCN)C(=O)O is reported as 2.1 µM (cell death; PI staining flow cytometry; MEC1; 90 min).
For NC[C@@H]1O[C@H](O[C@H]2[C@@H](O)[C@H](O[C@@H]3[C@@H](O)[C@H](N)C[C@H](N)[C@H]3O[C@H]3O[C@H](CO)[C@@H](SCCF)[C@H](O)[C@H]3N)O[C@@H]2CO)[C@H](N)[C@@H](O)[C@@H]1O, the IC50 was 69 µg/mL (bacterial hybrid ribosome, human cytoplasmic A site; cell-free translation, inhibitor).
With CC(=O)N[C@H]1CNC(=O)[C@H](Cc2ccccc2)NC(=O)[C@H](Cc2ccccc2)NC(=O)CCCCCCCCNC1=O the IC50 was 4.74 µM (AgrC (Staphylococcus aureus); reporter gene, inhibitor; Staphylococcus aureus, AH1677 (USA300 LAC); 24 h).
The IC50 of CCCCO[C@H]1[C@H](O)[C@@H](N)[C@@H](O[C@H]2[C@H](O[C@@H]3O[C@H](CO)[C@@H](O[C@H]4O[C@@H](CN)[C@@H](O)[C@H](O)[C@H]4N)[C@H]3O)[C@@H](O)[C@H](N)C[C@@H]2N)O[C@@H]1CO is reported as 90.9 ± 16.4 µg/mL (Mycobacterium smegmatis ribosome G1491A; translation, cell-free luciferase synthesis).
The IC50 of CC[S+]([O-])C1C(CO)OC(OC2C(N)CC(N)C(O)C2OC2OC(CO)C(OC3OC(CN)C(O)C(O)C3N)C2O)C(N)C1O (mixture of isomers) is reported as 139 µg/mL (bacterial hybrid ribosome, human mitochondrial A1555G A site; cell-free translation, inhibitor).

Repeated from above:
For NC[C@@H]1O[C@H](O[C@H]2[C@@H](O)[C@H](O[C@@H]3[C@@H](O)[C@H](N)C[C@H](N)[C@H]3O[C@H]3O[C@H](CO)[C@@H](OCCCO)[C@H](O)[C@H]3N)O[C@@H]2CO)[C@H](N)[C@@H](O)[C@@H]1O, the IC50 was > 700 µg/mL (Mycobacterium smegmatis ribosome G1491C; translation, cell-free luciferase synthesis).
The IC50 of CCN(C)C(=O)Oc1ccccc1/C=C1\Cc2cc(OC)c(OC)cc2C1=O is reported as 0.0903 µM (CES2A, mouse; irinotecan hydrolysis, inhibitor; mouse intestinal S9; 30 min preincubation, added: irinotecan).
The IC50 of CCS(=O)(=O)[C@H]1[C@H](O)[C@@H](N)[C@@H](O[C@H]2[C@H](O[C@@H]3O[C@H](CO)[C@@H](O[C@H]4O[C@@H](CN)[C@@H](O)[C@H](O)[C@H]4N)[C@H]3O)[C@@H](O)[C@H](N)C[C@@H]2N)O[C@@H]1CO is reported as 8.5 µg/mL (wild-type bacterial ribosome; cell-free translation, inhibitor).
